Assay results pooled from the literature.
Protocols differ between the studies behind these lines. Values joined by “and” are separate records of one study, mostly repeats; a detail may differ. ± gives the spread as reported.
DRD1: D(1A) dopamine receptor (DRD1, Homo sapiens, UniProt P21728)
Sequence of UniProt P21728 (whole entry, looked up): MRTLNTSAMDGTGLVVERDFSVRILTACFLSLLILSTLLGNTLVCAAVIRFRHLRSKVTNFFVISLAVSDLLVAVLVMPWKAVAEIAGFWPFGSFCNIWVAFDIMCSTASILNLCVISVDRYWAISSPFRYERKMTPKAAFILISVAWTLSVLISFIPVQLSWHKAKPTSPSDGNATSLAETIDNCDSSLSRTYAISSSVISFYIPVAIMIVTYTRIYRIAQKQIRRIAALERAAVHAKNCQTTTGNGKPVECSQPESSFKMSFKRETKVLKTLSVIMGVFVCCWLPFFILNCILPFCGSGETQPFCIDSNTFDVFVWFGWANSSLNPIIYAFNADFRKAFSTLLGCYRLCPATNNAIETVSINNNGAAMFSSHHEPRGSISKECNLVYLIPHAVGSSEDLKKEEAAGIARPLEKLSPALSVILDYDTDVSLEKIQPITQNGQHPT
Chymotrypsinogen A: Chymotrypsinogen A (Bos taurus, UniProt P00766)
ache: Acetylcholinesterase (ache, Electrophorus electricus, UniProt O42275)
Sequence of UniProt O42275 (whole entry, looked up): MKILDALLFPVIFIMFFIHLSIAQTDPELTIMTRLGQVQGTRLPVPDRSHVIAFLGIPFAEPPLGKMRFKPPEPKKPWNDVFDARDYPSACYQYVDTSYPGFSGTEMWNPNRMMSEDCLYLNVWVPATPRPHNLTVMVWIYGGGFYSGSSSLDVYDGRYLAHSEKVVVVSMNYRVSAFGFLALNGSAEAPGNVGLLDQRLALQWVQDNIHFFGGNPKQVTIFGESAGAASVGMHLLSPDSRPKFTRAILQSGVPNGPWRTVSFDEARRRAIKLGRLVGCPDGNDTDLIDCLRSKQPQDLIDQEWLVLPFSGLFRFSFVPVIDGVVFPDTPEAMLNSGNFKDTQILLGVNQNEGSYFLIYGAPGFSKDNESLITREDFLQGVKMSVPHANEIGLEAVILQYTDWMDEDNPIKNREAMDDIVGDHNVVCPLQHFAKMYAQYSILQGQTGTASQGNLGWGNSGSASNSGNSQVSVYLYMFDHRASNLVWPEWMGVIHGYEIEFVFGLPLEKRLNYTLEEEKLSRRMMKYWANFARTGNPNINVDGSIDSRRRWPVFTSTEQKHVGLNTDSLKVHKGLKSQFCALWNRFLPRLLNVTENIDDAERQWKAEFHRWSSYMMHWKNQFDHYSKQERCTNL
OPRK1: Kappa-type opioid receptor (OPRK1, Homo sapiens, UniProt P41145)
Sequence of UniProt P41145 (whole entry, looked up): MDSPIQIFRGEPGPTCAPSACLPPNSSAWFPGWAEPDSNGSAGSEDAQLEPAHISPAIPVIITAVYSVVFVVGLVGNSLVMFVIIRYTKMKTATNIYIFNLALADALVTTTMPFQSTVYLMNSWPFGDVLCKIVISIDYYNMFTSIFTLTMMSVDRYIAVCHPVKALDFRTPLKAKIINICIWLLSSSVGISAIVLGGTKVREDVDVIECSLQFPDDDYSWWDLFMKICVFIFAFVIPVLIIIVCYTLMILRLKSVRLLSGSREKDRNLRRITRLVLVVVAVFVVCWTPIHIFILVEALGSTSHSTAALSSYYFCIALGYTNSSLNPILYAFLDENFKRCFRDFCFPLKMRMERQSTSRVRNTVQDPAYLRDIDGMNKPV
SLC6A3: Sodium-dependent dopamine transporter (SLC6A3, Homo sapiens, UniProt Q01959)
Sequence of UniProt Q01959 (whole entry, looked up): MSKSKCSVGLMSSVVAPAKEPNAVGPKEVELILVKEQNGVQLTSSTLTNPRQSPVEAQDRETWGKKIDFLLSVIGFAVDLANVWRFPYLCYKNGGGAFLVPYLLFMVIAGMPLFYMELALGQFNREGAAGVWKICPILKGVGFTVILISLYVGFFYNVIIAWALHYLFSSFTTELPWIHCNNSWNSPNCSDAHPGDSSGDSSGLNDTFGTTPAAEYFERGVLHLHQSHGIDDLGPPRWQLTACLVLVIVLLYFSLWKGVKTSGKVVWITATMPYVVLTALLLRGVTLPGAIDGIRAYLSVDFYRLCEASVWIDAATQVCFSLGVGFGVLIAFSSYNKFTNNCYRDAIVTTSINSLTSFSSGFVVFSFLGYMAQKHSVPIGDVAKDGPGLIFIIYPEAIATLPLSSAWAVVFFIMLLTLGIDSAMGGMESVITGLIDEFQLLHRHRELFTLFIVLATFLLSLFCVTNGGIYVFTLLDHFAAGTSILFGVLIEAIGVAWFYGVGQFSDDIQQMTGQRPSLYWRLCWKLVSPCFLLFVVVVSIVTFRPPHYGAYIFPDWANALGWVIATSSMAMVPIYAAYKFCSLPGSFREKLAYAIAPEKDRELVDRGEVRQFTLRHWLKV
CA9: Carbonic anhydrase 9 (CA9, Homo sapiens, UniProt Q16790)
SIGMAR1: Sigma non-opioid intracellular receptor 1 (SIGMAR1, Homo sapiens, UniProt Q99720)
Sequence of UniProt Q99720 (whole entry, looked up): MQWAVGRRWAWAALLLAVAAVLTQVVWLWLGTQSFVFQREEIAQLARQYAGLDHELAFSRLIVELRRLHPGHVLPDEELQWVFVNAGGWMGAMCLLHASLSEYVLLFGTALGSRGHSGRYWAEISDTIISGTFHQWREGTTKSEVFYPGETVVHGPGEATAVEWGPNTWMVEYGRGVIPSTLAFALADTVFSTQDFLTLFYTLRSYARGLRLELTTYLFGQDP
Sequence of UniProt P33913 (whole entry, looked up): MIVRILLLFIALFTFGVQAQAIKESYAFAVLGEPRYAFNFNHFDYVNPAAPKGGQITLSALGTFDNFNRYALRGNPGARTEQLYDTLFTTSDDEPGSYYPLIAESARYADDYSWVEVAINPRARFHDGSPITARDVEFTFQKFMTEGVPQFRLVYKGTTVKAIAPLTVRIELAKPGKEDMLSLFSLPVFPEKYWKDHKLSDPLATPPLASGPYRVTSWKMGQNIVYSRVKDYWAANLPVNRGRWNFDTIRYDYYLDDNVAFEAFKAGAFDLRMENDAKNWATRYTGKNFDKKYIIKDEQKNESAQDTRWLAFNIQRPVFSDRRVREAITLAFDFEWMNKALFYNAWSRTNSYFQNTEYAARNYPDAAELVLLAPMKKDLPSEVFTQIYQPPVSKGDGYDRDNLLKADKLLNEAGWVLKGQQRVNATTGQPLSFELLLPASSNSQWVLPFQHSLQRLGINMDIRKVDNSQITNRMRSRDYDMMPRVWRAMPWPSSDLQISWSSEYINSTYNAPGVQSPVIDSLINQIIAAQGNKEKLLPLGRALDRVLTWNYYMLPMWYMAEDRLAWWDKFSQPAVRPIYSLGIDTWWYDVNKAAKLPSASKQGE
Sequence of UniProt Q6DWJ6 (whole entry, looked up): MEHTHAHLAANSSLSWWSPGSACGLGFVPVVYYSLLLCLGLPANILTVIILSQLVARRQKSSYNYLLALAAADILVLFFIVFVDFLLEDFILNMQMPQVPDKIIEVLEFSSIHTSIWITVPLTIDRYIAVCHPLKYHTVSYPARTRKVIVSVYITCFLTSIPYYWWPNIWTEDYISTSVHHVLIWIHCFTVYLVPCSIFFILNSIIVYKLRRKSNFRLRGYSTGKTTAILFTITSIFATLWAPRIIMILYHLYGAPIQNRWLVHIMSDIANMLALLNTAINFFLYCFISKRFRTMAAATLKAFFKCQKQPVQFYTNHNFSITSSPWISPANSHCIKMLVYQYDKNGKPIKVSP
Sequence of UniProt P21918 (whole entry, looked up): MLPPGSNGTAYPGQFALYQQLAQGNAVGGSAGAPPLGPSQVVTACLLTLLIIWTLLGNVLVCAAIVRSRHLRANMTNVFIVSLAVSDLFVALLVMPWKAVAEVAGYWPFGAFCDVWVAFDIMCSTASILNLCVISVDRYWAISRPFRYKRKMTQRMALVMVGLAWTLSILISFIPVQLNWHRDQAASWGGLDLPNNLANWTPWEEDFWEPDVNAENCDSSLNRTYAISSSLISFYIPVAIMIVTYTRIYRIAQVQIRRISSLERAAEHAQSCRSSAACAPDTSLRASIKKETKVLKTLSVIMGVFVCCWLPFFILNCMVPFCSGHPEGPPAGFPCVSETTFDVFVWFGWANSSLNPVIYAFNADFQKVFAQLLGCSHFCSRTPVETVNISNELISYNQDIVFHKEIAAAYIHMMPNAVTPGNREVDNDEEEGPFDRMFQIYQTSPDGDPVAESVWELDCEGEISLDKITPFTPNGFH
Sequence of UniProt P23811 (whole entry, looked up): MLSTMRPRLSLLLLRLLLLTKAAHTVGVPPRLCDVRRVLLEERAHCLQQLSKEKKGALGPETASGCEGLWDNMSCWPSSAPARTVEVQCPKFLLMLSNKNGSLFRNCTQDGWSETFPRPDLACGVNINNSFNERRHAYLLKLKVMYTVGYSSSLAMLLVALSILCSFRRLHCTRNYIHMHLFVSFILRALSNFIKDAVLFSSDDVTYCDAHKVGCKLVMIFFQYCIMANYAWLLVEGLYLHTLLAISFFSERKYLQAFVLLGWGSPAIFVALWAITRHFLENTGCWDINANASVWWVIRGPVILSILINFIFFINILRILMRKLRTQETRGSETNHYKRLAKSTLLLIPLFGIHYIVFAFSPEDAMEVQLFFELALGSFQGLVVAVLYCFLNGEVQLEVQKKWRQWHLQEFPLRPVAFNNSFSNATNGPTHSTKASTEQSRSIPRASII
Sequence of UniProt P35372 (whole entry, looked up): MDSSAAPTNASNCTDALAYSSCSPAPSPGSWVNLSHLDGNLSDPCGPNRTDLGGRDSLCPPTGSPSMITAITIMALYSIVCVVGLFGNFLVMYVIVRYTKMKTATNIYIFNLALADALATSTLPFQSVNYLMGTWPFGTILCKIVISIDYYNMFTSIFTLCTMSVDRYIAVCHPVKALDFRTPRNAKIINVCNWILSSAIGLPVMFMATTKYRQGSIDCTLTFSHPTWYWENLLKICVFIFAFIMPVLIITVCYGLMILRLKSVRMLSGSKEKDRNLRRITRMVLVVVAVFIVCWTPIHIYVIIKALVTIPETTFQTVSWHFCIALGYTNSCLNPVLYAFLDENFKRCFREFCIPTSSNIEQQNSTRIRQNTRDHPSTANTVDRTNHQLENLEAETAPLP
Sequence of UniProt P41143 (whole entry, unmodified, looked up): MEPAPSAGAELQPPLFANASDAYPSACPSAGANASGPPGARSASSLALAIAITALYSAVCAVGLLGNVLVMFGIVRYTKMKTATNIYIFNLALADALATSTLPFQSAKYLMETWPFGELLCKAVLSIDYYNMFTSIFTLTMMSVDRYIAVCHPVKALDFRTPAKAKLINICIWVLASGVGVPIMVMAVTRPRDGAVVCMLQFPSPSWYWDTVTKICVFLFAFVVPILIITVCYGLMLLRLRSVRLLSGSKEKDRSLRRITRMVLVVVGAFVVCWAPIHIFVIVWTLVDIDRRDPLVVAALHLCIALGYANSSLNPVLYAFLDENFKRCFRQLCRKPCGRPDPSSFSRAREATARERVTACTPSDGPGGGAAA

C[C@@H](Cc1ccsc1)NC(=O)NC[C@H](Cc1ccc(O)cc1)N(C)C
Ki (DRD1; cell-free assay): 32 µM

Cc1ccc(/N=N/c2ccc(C)c([B-](F)(F)F)c2)cc1
Ki (Chymotrypsinogen A; enzyme activity, competitive inhibitor; buffer with 2 vol% DMSO; pH 7.81, 25 °C, thermally adapted trans state, added: Suc-AAPF-AMC): 200 µM

C[C@@H](NC(=O)[C@@H](N)Cc1ccc(O)cc1)C(=O)NCC(=O)N[C@@H](Cc1ccccc1)C(=O)N[C@H](CCCNC(=N)N)C(=O)N[C@@H](CCCNC(=N)N)C(=O)N1CCC[C@H]1C(=O)N1C[C@H](O)C[C@H]1C(=O)NCC(=O)N[C@@H](Cc1cccs1)C(=O)N[C@@H](CO)C(=O)N1Cc2ccccc2C[C@@H]1C(=O)N1[C@H](C(=O)N[C@@H](CCCNC(=N)N)C(=O)O)C[C@@H]2CCCC[C@@H]21
Ki (bradykinin B2 receptor (rat); rat brain membranes; added: [3H]bradykinin): > 10 µM

O=S(=O)(N/N=C/c1ccc(OS(=O)(=O)c2cc(Cl)ccc2Cl)cc1)c1ccc(Cl)cc1
Ki (ache; enzyme activity, inhibitor, Ellman): 0.104 µM

O=C(Cc1ccc(F)c(Cl)c1)N1CCN[C@@H]2COC[C@H](N3CCCC3)[C@H]21 (relative stereo)
Ki (OPRK1; cell-free assay): 0.18 µM

CC(=O)c1cccc(/N=N/c2cccc([B-](F)(F)F)c2)c1
Ki (Chymotrypsinogen A; enzyme activity, inhibitor; pH 7.81, 25 °C, cis-enriched photostationary state, added: Suc-AAPF-AMC): 257 µM

COC(=O)[C@H]1[C@@H](c2ccc(Cl)cc2)C[C@@H]2CC[C@H]1N2Cc1ccc2cc3ccccc3cc2c1
Ki (SLC6A3; ligand displacement, radioligand; pH 7.4): 0.0097 µM

N[C@H]1CCSC1=O
Ki (CA9; CO2 hydration activity, inhibitor, stopped-flow CO2 hydration; room temperature preincubation): > 100 µM

CC(C)C[C@H](NC(=O)CNC(=O)[C@H](CCC(N)=O)NC(=O)[C@H](CC(C)C)NC(=O)[C@H](CC(C)C)NC(=O)[C@H](CCCNC(=N)N)NC(=O)[C@H](CCC(N)=O)NC(=O)[C@H](Cc1ccc(C(=O)c2ccccc2)cc1)NC(=O)[C@H](CCCNC(=N)N)NC(=O)[C@H](C)NC(=O)[C@H](CO)NC(=O)[C@H](CC(=O)O)NC(=O)[C@H](CCC(N)=O)NC(=O)[C@H](CC(C)C)NC(=O)[C@H](CCCNC(=N)N)NC(=O)[C@H](CO)NC(=O)[C@H](Cc1ccc(O)cc1)NC(=O)[C@H](CCC(=O)O)NC(=O)[C@H](CO)NC(=O)[C@@H](NC(=O)[C@H](Cc1ccccc1)NC(=O)[C@@H](NC(=O)CNC(=O)[C@H](CC(=O)O)NC(=O)[C@H](CO)NC(=O)[C@@H](N)Cc1c[nH]cn1)[C@@H](C)O)[C@@H](C)O)C(=O)N[C@H](C(N)=O)C(C)C
Ki (Sctr (Rattus norvegicus, UniProt P23811); ligand displacement in cells, radioligand): > 1 µM

Cc1ccccc1/N=N/c1cccc([B-](F)(F)F)c1
Ki (Chymotrypsinogen A; enzyme activity, competitive inhibitor; buffer with 2 vol% DMSO; pH 7.81, 25 °C, thermally adapted trans state, added: Suc-AAPF-AMC): 10 µM

CSCC[C@H](NC=O)C(=O)N[C@@H](CCCNC(=N)N)C(=O)N[C@H](C(=O)NCC(=O)N[C@@H](CC(N)=O)C(=O)N[C@@H](C)C(=O)N[C@@H](CC(N)=O)C(=O)O)[C@@H](C)O
Ki (Uncharacterized protein YejA (yejA, Escherichia coli, UniProt P33913); binding, competition fluorescence polarization): ~0.12 µM and 0.12 µM

O=C(O)c1ccc(/N=N/c2cccc([B-](F)(F)F)c2)cc1
Ki (Chymotrypsinogen A; enzyme activity, inhibitor; pH 7.81, 25 °C, cis-enriched photostationary state, added: Suc-AAPF-AMC): 554 µM

CC[C@H](C)[C@H](NC(=O)[C@H](CCCNC(=N)N)NC(=O)[C@H](CCCNC(=N)N)NC(=O)[C@H](CC(C)C)NC(=O)[C@H](Cc1ccccc1)NC(=O)CNC(=O)CNC(=O)[C@@H](N)Cc1ccc(O)cc1)C(=O)N[C@@H](CCCNC(=N)N)C(=O)N1CCC[C@H]1C(=O)N[C@@H](CCCCN)C(=O)N[C@@H](CC(C)C)C(=O)N[C@@H](CCCCN)C(=O)N[C@@H](Cc1c[nH]c2ccccc12)C(=O)N[C@@H](CC(=O)O)C(=O)N[C@@H](CC(N)=O)C(=O)N[C@@H](CCC(N)=O)C(=O)O
Ki (GPR139 (Homo sapiens, UniProt Q6DWJ6); ligand displacement, radioligand; cell membranes): 0.0177 µM

CC(C)n1nc(-c2ccc3cc(OCc4cccc(Cl)c4)ccc3c2)c2c(N)ncnc21
Ki (CSK (Homo sapiens, UniProt P41240, T266M); enzyme activity, inhibitor): 0.848 µM

O=C(Cc1ccc(Cl)c(Cl)c1)N1CCN[C@@H]2COC[C@H](N3CCCC3)[C@H]21
Ki (OPRM1 (Homo sapiens, UniProt P35372); binding, radioligand displacement; CHO cell membranes; added: [3H]DAMGO): > 10 µM

CCCCCn1c2ccccc2c2cc(C(=O)N3CCN(C(=O)OC(C)(C)C)CC3)ccc21
Ki (Cnr1 (Rattus norvegicus, UniProt P20272); ligand displacement, radioligand): > 5 µM

Cc1cc(=O)oc2cc(OCCCCCC[Se]C#N)ccc12
Ki (CA9; enzyme activity, inhibitor, stopped-flow): 0.0458 µM

CC(C)[C@@H]1NC(=O)[C@H](Cc2ccccc2)NC(=O)[C@H](Cc2ccc(O)cc2)NC(=O)CCSSC[C@@H](C(=O)N2CCC[C@H]2C(=O)N[C@H](CCCNC(=N)N)C(=O)NCC(N)=O)NC(=O)[C@H](CC(N)=O)NC(=O)[C@H](C(C)C)NC(=O)[C@H](Cc2ccccc2)NC(=O)[C@H](Cc2ccc(O)cc2)NC(=O)CCSSC[C@@H](C(=O)N2CCC[C@H]2C(=O)N[C@H](CCCNC(=N)N)C(=O)NCC(N)=O)NC(=O)[C@H](CC(N)=O)NC1=O
Ki (AVPR2 (Homo sapiens, UniProt P30518); ligand displacement, radioligand; cell membranes): 0.0086 µM

C[C@]12COc3ccc(OCc4ccc(Cl)cc4)cc3[C@H]1CCN2
Ki (SIGMAR1; cell-free assay, radioligand): 0.0017 µM

COC(=O)[C@H]1[C@@H](c2ccc(Cl)cc2)C[C@@H]2CC[C@H]1N2CCCc1ccc2cc3ccccc3cc2c1
Ki (SLC6A3; ligand displacement, radioligand; pH 7.4, cell membranes): 0.03 µM

Cc1ccc(/N=N/c2cccc([B-](F)(F)F)c2)cc1
Ki (Chymotrypsinogen A; enzyme activity, inhibitor; pH 7.81, 25 °C, cis-enriched photostationary state, added: Suc-AAPF-AMC): 35.8 µM

COc1ccc(S(=O)(=O)Oc2ccc(/C=N/NS(=O)(=O)c3ccc(Cl)cc3)cc2)cc1
Ki (ache; enzyme activity, inhibitor, Ellman): 0.0252 µM

C[C@@H](CN1CCC(Cc2ccccc2)CC1)[C@@H](O)c1ccc(O)cc1
Ki (OPRK1; cell-free assay): 3.13 µM

COC(=O)[C@H]1[C@@H](c2ccc(Cl)c(Cl)c2)C[C@@H]2CC[C@H]1N2CCCc1c2ccccc2cc2ccccc12
Ki (SLC6A3; ligand displacement, radioligand; pH 7.4): 0.053 µM

O=S(=O)(N/N=C/c1ccc(OS(=O)(=O)c2ccccc2)cc1)c1cc(Cl)ccc1Cl
Ki (ache; enzyme activity, inhibitor, Ellman): 0.0101 µM

CCCNC(=O)[C@H]1O[C@@H]1C(=O)N[C@H](C(=O)N1CCC[C@H]1C(=O)OCC1=C2C(C)=CC(C)=[N+]2[B-](F)(F)n2c(C)cc(C)c21)[C@@H](C)CC
Ki (Cathepsin B (CTSB, Homo sapiens, UniProt P07858); irreversible inactivation, inhibitor; concentration not given, pH 5.5, 25 °C, in dark, added: Z-Arg-Arg-AMC): 94 ± 30 µM

CN(C)[C@H](CNC(=O)/C=C/c1cccc2ccccc12)Cc1ccc(O)cc1
Ki (DRD5 (Homo sapiens, UniProt P21918); cell-free assay): 1.7 µM

F[B-](F)(F)c1cccc(/N=N/c2ccccc2I)c1
Ki (Chymotrypsinogen A; enzyme activity, inhibitor; pH 7.81, 25 °C, cis-enriched photostationary state, added: Suc-AAPF-AMC): 133 µM

O=C1c2ccccc2CCCN1CCCCN1CCN(c2cccc(Cl)c2Cl)CC1
Ki (HTR7 (Homo sapiens, UniProt P34969); ligand displacement, radioligand): 0.02 µM

CC(C)(C)c1ccc(/N=N/c2cccc([B-](F)(F)F)c2)cc1
Ki (Chymotrypsinogen A; enzyme activity, competitive inhibitor; buffer with 2 vol% DMSO; pH 7.81, 25 °C, thermally adapted trans state, added: Suc-AAPF-AMC): 341 µM

C[C@]12COc3ccc(OCCc4ccccc4)cc3[C@H]1CCN2
Ki (SIGMAR1; cell-free assay, radioligand): 0.0033 µM

CC(=O)NCC(=O)N[C@@H](CCCCN)C(=O)N[C@@H](C)C(=O)N1CCC[C@H]1C(=O)N[C@@H](CCCNC(=N)NCCC[C@H]1O[C@@H](n2cnc3c(N)ncnc32)[C@H](O)[C@@H]1O)C(=O)N[C@@H](CCCCN)C(=O)N[C@@H](CCC(N)=O)C(=O)N[C@@H](CC(C)C)C(=O)N[C@@H](C)C(=O)N[C@H](C(N)=O)[C@@H](C)O (relative stereo)
Ki (CARM1 (Homo sapiens, UniProt Q86X55); enzyme activity, inhibitor): 0.02 µM

COc1ccccc1/N=N/c1cccc([B-](F)(F)F)c1
Ki (Chymotrypsinogen A; enzyme activity, competitive inhibitor; buffer with 2 vol% DMSO; pH 7.81, 25 °C, thermally adapted trans state, added: Suc-AAPF-AMC): 49.9 µM

COc1cc2c(cc1O)C(CCc1ccc(Cl)cc1)N(C)CC2 (centres unmarked)
Ki (DRD1; cell-free assay, radioligand): 0.27 µM

Cc1cc(O)cc(C)c1C[C@H](N)C(=O)N[C@H](CCCNC(=N)N)C(=O)N[C@@H](Cc1ccccc1)C(=O)N(C)CC(=O)N(C)Cc1cc(C(F)(F)F)cc(C(F)(F)F)c1
Ki (OPRD1 (Homo sapiens, UniProt P41143, G268V)): 0.00717 ± 0.00173 µM

For quick reference, copied from above:
C[C@@H](Cc1ccsc1)NC(=O)NC[C@H](Cc1ccc(O)cc1)N(C)C
Ki (DRD1; cell-free assay): 32 µM

COC(=O)[C@H]1[C@@H](c2ccc(Cl)cc2)C[C@@H]2CC[C@H]1N2Cc1ccc2cc3ccccc3cc2c1
Ki (SLC6A3; ligand displacement, radioligand; pH 7.4): 0.0097 µM

N[C@H]1CCSC1=O
Ki (CA9; CO2 hydration activity, inhibitor, stopped-flow CO2 hydration; room temperature preincubation): > 100 µM

O=C(Cc1ccc(Cl)c(Cl)c1)N1CCN[C@@H]2COC[C@H](N3CCCC3)[C@H]21
Ki (OPRM1 (Homo sapiens, UniProt P35372); binding, radioligand displacement; CHO cell membranes; added: [3H]DAMGO): > 10 µM
